Published values pooled from the literature.
Numbers after ± are the reported error.

| SMILES | target or system | assay | test system | conditions | how to read | endpoint | result |
| --- | --- | --- | --- | --- | --- | --- | --- |
| CN[C@](C)(C[18F])C(=O)O | MDA-MB-468 tumour model |  | host not given, kidney | 15 min, tumour-bearing |  | tracer uptake | 21 %ID/g |
| CC[C@H](C)C(=O)N1CCC(NC(=O)Nc2ccc(OC(F)(F)F)c(F)c2)CC1 |  |  | healthy volunteers | oral, 24 mg single dose |  | subjects with feeling hot TEAE | 0% |
| C[C@]12CC[C@H](O)CC1CCC1C2[C@H](O)C(=O)[C@]2(C)[C@@H](c3ccc(=O)oc3)CC[C@]12O (some centres unmarked) |  | sulfation, substrate | pooled human liver cytosol | pH 7.4 |  | Km | 69 ± 11 µM |
| CCCCCCCC(=O)OC[C@H](NC(=O)[C@H](CO)NC(=O)CN)C(=O)N[C@@H](Cc1ccccc1)C(=O)N[C@@H](CC(C)C)C(=O)N[C@@H](CO)C(=O)N1CCC[C@H]1C(=O)N[C@@H](CCC(=O)O)C(=O)N[C@@H](Cc1cnc[nH]1)C(=O)N[C@@H](CCC(N)=O)C(=O)N[C@@H](CCCNC(=N)N)C(=O)N[C@H](C(=O)N[C@@H](CCC(N)=O)C(=O)N[C@@H](CCC(N)=O)C(=O)N[C@@H](CCCNC(=N)N)C(=O)N[C@@H](CCCCN)C(=O)N[C@@H](CCC(=O)O)C(=O)N[C@@H](CO)C(=O)N[C@@H](CCCCN)C(=O)N[C@@H](CCCCN)C(=O)N1CCC[C@H]1C(=O)N1CCC[C@H]1C(=O)N[C@@H](C)C(=O)N[C@@H](CCCCN)C(=O)N[C@@H](CC(C)C)C(=O)N[C@@H](CCC(N)=O)C(=O)N1CCC[C@H]1C(=O)N[C@@H](CCCNC(=N)N)C(=O)O)C(C)C |  | ELISA | healthy humans, both sexes, plasma | intravenous bolus then infusion, 0.28 µg/kg bolus then 1 µg/kg/h, 210 min |  | Cmax | 1.93 ± 1.3 ng/mL |
| N=C(N)NCc1ccc(C(=O)NCCCC[C@H](NC(=O)N[C@@H](CCC(=O)O)C(=O)O)C(=O)O)cc1[131I] |  |  | SCID mouse, PC-3 xenografts, muscle | 4 h |  | tissue uptake | 0.14 ± 0.06 %ID/g |
| Cc1ccc(/C=C/C(=O)O)cc1-c1cc2c(cc1C)C(C)(C)CCC2(C)C |  |  | Sprague-Dawley rat, male | oral, 100 mg/kg, 1 h, sesame oil vehicle |  | blood triglycerides | 68 ± 5.9 mg/dL |
| CCCC[C@H]1C(=O)N(C)[C@@H](CCCC)C(=O)N[C@@H](CCCNC(=O)CN2CCN(CC(=O)O)CCN(CC(=O)O)CCN(CC(=O)O)CC2)C(=O)N[C@H](C(=O)NCC(N)=O)CSCC(=O)N[C@@H](Cc2ccc(O)cc2)C(=O)N(C)[C@@H](C)C(=O)N[C@@H](CC(N)=O)C(=O)N2CCC[C@H]2C(=O)N[C@@H](Cc2c[nH]cn2)C(=O)N[C@@H](CC(C)C)C(=O)N(C)CC(=O)N[C@@H](Cc2c[nH]c3ccccc23)C(=O)N[C@@H](CO)C(=O)N[C@@H](Cc2c[nH]c3ccccc23)C(=O)N1C [gallium-68 labelled] |  | static PET | NOD/SCID mice, CHO-hPD-L1 xenograft, CHO-hPD-L1 tumour | intravenous, 1 h post injection |  | tumour to muscle ratio | 6.49 ± 0.91 |
| O=C([O-])CN(CCN(CC(=O)[O-])CC(=O)[O-])CCN(CC(=O)[O-])CC(=O)[O-].[177Lu+3] |  |  | human serum | 24 h, 37 °C, with: 177Lu |  | radiometal bound to chelator | 82% |
| NC(=O)[C@@H](CCCCNC(=O)CNC(=O)CCC(=O)NCCc1c[nH]cn1)NC(=O)[C@@H](Cc1ccc(O)cc1)NC(=O)[C@@H](CCCCNC(=O)CNC(=O)CCC(=O)NCCc1c[nH]cn1)NC(=O)Cc1ccc(CN2CCN(CC(=O)O)CCN(CC(=O)O)CC2)cc1 [fluorine-18 labelled] |  |  | tumour-bearing nude mice | intravenous, 1 h, TF2 pretargeting | baseline: tumour over kidney | tissue ratio | 9 ± 4 |
| CSCC[C@H](NC(=O)[C@H](CC(N)=O)NC(=O)[C@@H](N)Cc1ccccc1)C(=O)N[C@@H](CCC(N)=O)C(=O)N[C@@H](C)C(=O)N[C@@H](CCC(N)=O)C(=O)N[C@@H](CCCNC(=N)N)C(=O)N[C@@H](CCCNC(=N)N)C(=O)N[C@@H](Cc1ccccc1)C(=O)N[C@@H](Cc1ccc(O)cc1)C(=O)N[C@@H](CCC(=O)O)C(=O)N[C@@H](C)C(=O)N[C@@H](CC(C)C)C(=O)N[C@@H](Cc1c[nH]cn1)C(=O)N[C@@H](CC(=O)O)C(=O)NCC(=O)NCC(=O)NCC(=O)NCC(=O)N[C@@H](CO)C(=O)N[C@@H](C)C(=O)N[C@@H](CCC(=O)O)C(=O)N[C@@H](C)C(=O)N[C@@H](CCC(=O)O)C(=O)N[C@@H](C)C(=O)N[C@@H](CCCCN)C(=O)N[C@@H](C)C(=O)N[C@@H](CCCCN)C(=O)N[C@@H](C)C(=O)N[C@@H](CCC(=O)O)C(=O)N[C@@H](C)C(=O)N[C@@H](CCC(=O)O)C(=O)N[C@@H](C)C(=O)N[C@@H](CCCCN)C(=O)N[C@@H](C)C(=O)N[C@@H](CCCCN)C(=O)O |  | TEM | PBS |  | up to | fibril length | ≤ 1 µm |
| O=C(NCCNCCO)c1cn(Cc2ccccc2)c2cc(OCc3ccc(C(F)(F)F)cc3)c(Cl)cc2c1=O |  | metabolic stability | male rat, liver microsomes | 1 µM |  | microsomal CLint | < 11.6 µL/min/mg |
| CCCS(=O)(=O)c1ccc2[nH]c(NC(=O)OC)nc2c1 |  |  | human liver cytosol | 1 µM, 30 min, 1 mg/mL protein |  | percent metabolized | 0.99% |
| O=C(NCCCCCn1ccc2ccccc21)Oc1ccccc1 |  |  | rat liver S9 fraction | 30 min, with: NADPH |  | parent remaining | 52 ± 2% |
| CCCCCCCCCCCCCCC(=O)O.O=C1CCCC2C3CCCN4CCCC(CN12)C34 (centres unmarked) |  | shake-flask | ultrapure water | pH 7.0, 37 °C |  | log octanol-water partition coefficient | 0.6 |
| CC[C@@]1(O)C(=O)OCc2c1cc1n(c2=O)Cc2c-1nc1cc(F)c(C)c3c1c2[C@@H](NC(=O)CO)CC3 |  |  | PAMPA | 5 µM, 4 h, pH 5 |  | Papp | 13 ×10⁻⁶ cm/s |
| CCCC(=O)OC1O[C@@H]2O[C@@]3(C)CC[C@H]4[C@H](C)CCC([C@H]1C)[C@@]24OO3 (some centres unmarked) |  |  | Tg(fli1:EGFP) zebrafish embryos | 1.0 µg/mL, up to 48 hpf |  | dead embryos | 2 count |
| CSCC[C@H](NC(=O)CNC(=O)[C@H](CC(=O)O)NC(=O)[C@@H](NC(=O)[C@@H](NC(=O)[C@@H](NC(=O)CNC(=O)[C@H](CCC(N)=O)NC(=O)[C@H](CCSC)NC(=O)[C@H](CC(=O)O)NC(=O)[C@H](C)NC(=O)[C@H](C)NC(=O)[C@@H](NC(=O)[C@H](CO)NC(=O)[C@@H](N)CC(C)C)[C@@H](C)O)C(C)C)C(C)C)[C@@H](C)O)C(=O)N[C@@H](C)C(=O)N[C@@H](CO)C(=O)NCC(=O)N[C@@H](CC(C)C)C(=O)N[C@@H](CC(=O)O)C(=O)N[C@@H](CCCCN)C(=O)N[C@@H](CC(=O)O)C(=O)N[C@@H](Cc1ccc(O)cc1)C(=O)N[C@@H](CC(C)C)C(=O)N[C@@H](CCCCN)C(=O)N1CCC[C@H]1C(=O)N[C@@H](CC(=O)O)C(=O)N[C@@H](CC(=O)O)C(=O)O |  |  | human, serum | intravenous, 1.66 mg/kg, patients, infusion |  | clearance | 21 mL/min/kg |
| COc1ccc(C2=Nn3c(NN=C4C(=O)N(Cc5ccccc5)c5ccc(Cl)cc54)nnc3SC2)cc1 |  |  | chick embryo, chorioallantoic membrane | 40 µM |  | toxicity | toxic |
| O=c1cc(-c2ccccc2)oc2c(Br)c(O)c(O)c(O)c12 |  |  | C57BL/6 mouse, plasma | oral, 250 mg/kg, single dose |  | MRT(0-t) | 7.5 h |
| CCC(=O)N(C)c1ccc(Cl)c(Cl)c1 | Salmonella typhimurium | Ames test | TA1535 | 0.50 mg/plate, without S9 activation |  | revertants | 13 ± 4.6 revertants/plate |
| COc1cc(NC(=O)C(=O)c2c(C)n(Cc3ccc(Cl)cc3)c3ccc(C)cc23)ccn1 |  |  | cynomolgus monkey, male, plasma | intravenous, 1 mg/kg |  | C0 | 1650 ng/mL |
| CNC(=O)[C@H](CCC(=O)NCCCC[C@@H]1NC(=O)[C@@H](Cc2ccccc2)NC(=O)[C@H](CC(=O)O)NC(=O)CNC(=O)[C@H](CCCNC(=N)N)NC1=O)NC(=O)CN1CCN(CC(=O)O)CCN(CC(=O)O)CCN(CC(=O)O)CC1 [indium-111 labelled] |  |  | female BALB/c nude mice, SK-RC-52 xenograft, tumour | 0.5 µg, 2 h post injection, with: excess unlabelled DOTA-E-[c(RGDfK)]2 50 µg |  | radioactivity concentration | decreased |
| CN(C)C(CNC(=O)Nc1cc(C(F)(F)F)ccc1N1CCOCC1)c1ccncc1 (centres unmarked) |  |  | mouse, serum | intraperitoneal, 180 mg/kg single dose |  | serum potassium | 6.2 mmol/L |
| COc1cc(C(=O)NCCOCCOCCOCCNC(=O)c2ccc([18F])nc2)ccc1NC(=O)C1NC(CC(C)(C)C)C(C#N)(c2ccc(Cl)cc2F)C1c1cccc(Cl)c1F (centres unmarked) | HepG2 tumour model |  | host not given, tumour | 4 h, tumour-bearing |  | tracer uptake | 0.98 %ID/g |
| CCN(Cc1ccccc1)C(=O)CCc1nc(CN2CCN(C(=O)Cc3ccc(OC)c(OC)c3)CC2)no1 |  | mechanical withdrawal threshold, von Frey | mouse CCI model | 1 mg/kg, dosing from day 11 |  | onset day | 15 days |
| CN(C)CC1CCCCC1(O)c1cccc(O)c1 (centres unmarked) |  |  | Caco-2 | 50 µM, 3 h, pH 7.4 |  | efflux ratio | 1.1 |

For quick reference, copied from above:
| SMILES | target or system | assay | test system | conditions | how to read | endpoint | result |
| --- | --- | --- | --- | --- | --- | --- | --- |
| COc1cc(NC(=O)C(=O)c2c(C)n(Cc3ccc(Cl)cc3)c3ccc(C)cc23)ccn1 |  |  | cynomolgus monkey, male, plasma | intravenous, 1 mg/kg |  | C0 | 1650 ng/mL |
| CNC(=O)[C@H](CCC(=O)NCCCC[C@@H]1NC(=O)[C@@H](Cc2ccccc2)NC(=O)[C@H](CC(=O)O)NC(=O)CNC(=O)[C@H](CCCNC(=N)N)NC1=O)NC(=O)CN1CCN(CC(=O)O)CCN(CC(=O)O)CCN(CC(=O)O)CC1 [indium-111 labelled] |  |  | female BALB/c nude mice, SK-RC-52 xenograft, tumour | 0.5 µg, 2 h post injection, with: excess unlabelled DOTA-E-[c(RGDfK)]2 50 µg |  | radioactivity concentration | decreased |
| CN(C)C(CNC(=O)Nc1cc(C(F)(F)F)ccc1N1CCOCC1)c1ccncc1 (centres unmarked) |  |  | mouse, serum | intraperitoneal, 180 mg/kg single dose |  | serum potassium | 6.2 mmol/L |
| COc1cc(C(=O)NCCOCCOCCOCCNC(=O)c2ccc([18F])nc2)ccc1NC(=O)C1NC(CC(C)(C)C)C(C#N)(c2ccc(Cl)cc2F)C1c1cccc(Cl)c1F (centres unmarked) | HepG2 tumour model |  | host not given, tumour | 4 h, tumour-bearing |  | tracer uptake | 0.98 %ID/g |
